Results from different studies.
Parts stem from different laboratories: compare values within a part only. Positions count from the first letter of the parent shown.

Block 1 — technique: universal PBM; molecule type: double-stranded DNA, one strand shown; matrix: in vitro; concentration: not given; direction: higher = stronger binding
Target: Sal-like protein 4, full length isoform B (SALL4, Homo sapiens, UniProt Q9UJQ4-2, residues 1-616)
Setting: 8-mer, flanks averaged, mean of replicates
Sequence	E-score
ATGGTTCG	-0.0803
GGGAAGTA	0.045
ATCGGGCC	-0.296
CACAACTG	-0.229
ACTGACAG	-0.0233
AATACGAG	0.196
ATCCTAAG	-0.0801
CTACTCGC	-0.155
GGCCTACC	-0.335
ACGAAGAA	0.209
CAACTGTG	-0.0389
CCTAGTGA	-0.136
TATTGCGA	0.138
AGACGTGG	-0.0282
AACCAGTC	0.00975
ACCCCAAC	-0.0548
CGCCCTAC	-0.0115

Block 2 — technique: DHFR PCA, deep sequencing; matrix: yeast; with: (+)-ABA 0.032 µM; baseline: wild-type fitted maximum; direction: higher = stronger binding
Target: ABI1, truncated, D143A, DHFR fusion (Arabidopsis thaliana)
Setting: methotrexate growth selection, single substitutions
Starting sequence: PYL1, truncated, DHFR fusion (Arabidopsis thaliana); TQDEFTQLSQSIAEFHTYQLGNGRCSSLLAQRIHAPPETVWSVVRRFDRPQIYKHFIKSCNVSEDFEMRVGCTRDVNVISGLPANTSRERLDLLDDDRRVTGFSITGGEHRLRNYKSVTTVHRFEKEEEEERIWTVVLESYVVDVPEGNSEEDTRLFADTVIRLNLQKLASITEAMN; partner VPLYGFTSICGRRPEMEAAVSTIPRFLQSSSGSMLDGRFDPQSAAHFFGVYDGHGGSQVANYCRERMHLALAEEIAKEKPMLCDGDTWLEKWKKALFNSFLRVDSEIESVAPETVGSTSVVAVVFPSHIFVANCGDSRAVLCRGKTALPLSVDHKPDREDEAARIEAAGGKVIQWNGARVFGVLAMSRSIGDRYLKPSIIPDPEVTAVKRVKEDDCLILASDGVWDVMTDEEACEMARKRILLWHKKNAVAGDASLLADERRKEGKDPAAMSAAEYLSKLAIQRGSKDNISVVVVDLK
Substitution	relative binding score
N85R	54.5%
A175W	0.76%
E151W	4%
P36I	2.51%
D3F	21.3%
E129I	11.7%
R132S	54.2%
L164P	8%
L169T	-2.4%
V40G	-3.3%
S171P	5.03%
R132A	41.4%
E4S	9.7%
E89P	1.9%
F66L	1.78%
T1N	30.2%
Q2T	27%

Block 3 — technique: protein-binding microarray; molecule type: hairpin DNA; matrix: in vitro; concentration: not given; baseline: not given; direction: higher = stronger binding
Target: GDNF-inducible zinc finger protein 1, full length (GZF1, Homo sapiens, UniProt Q9H116, residues 1-711)
Setting: whole hairpin DNA, median over replicate spots
Construct (chain): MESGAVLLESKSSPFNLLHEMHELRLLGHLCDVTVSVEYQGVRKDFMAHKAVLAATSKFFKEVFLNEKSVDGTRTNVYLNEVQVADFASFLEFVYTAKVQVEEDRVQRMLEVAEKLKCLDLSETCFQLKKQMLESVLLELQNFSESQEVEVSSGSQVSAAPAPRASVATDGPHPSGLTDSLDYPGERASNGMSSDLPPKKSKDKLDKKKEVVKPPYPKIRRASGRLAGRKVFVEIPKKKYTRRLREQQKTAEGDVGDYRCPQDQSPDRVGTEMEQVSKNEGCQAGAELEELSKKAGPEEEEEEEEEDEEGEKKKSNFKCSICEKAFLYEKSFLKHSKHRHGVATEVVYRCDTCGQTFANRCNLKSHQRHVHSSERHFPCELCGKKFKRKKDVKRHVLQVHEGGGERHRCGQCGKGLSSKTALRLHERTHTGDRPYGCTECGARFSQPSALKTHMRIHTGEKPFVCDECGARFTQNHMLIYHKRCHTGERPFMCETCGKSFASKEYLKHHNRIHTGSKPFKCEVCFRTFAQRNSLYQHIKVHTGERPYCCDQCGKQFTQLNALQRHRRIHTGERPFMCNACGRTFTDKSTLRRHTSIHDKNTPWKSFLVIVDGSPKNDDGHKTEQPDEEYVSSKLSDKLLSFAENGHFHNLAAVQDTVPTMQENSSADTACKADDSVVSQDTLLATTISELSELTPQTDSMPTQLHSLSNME
Sequence	median fluorescence
GAGGCCATTACAGTAATGCCTCCTGGCATTACTGTAATGGCCTCACACTC	376 a.u.
GAGGCCATTACGGTAGTGCCTCCTGGCACTACCGTAATGGCCTCACACTC	669 a.u.
GAGGCCATTACGTTAATGCCTCCTGGCATTAACGTAATGGCCTCACACTC	380 a.u.
GAGGCCACGACGGTAATGCCTCCTGGCATTACCGTCGTGGCCTCACACTC (5mC at 8)	785 a.u.
GAGGCCATTACGGTAATGCCTCCTGGCATTACCGTAATGGCCTCACACTC (5mC at 33)	505 a.u.
GAGGCCATTACGGTACGGCCTCCTGGCCGTACCGTAATGGCCTCACACTC (5mC at 16)	611 a.u.
GAGGCCATTCCGGTAATGCCTCCTGGCATTACCGGAATGGCCTCACACTC	591 a.u.
GAGGCCATTCGGGTAATGCCTCCTGGCATTACCCGAATGGCCTCACACTC (5mC at 10 34)	443 a.u.
GAGGCCATTACCGTAATGCCTCCTGGCATTACGGTAATGGCCTCACACTC (5mC at 12)	552 a.u.
GAGGCCATTACGCGAATGCCTCCTGGCATTCGCGTAATGGCCTCACACTC (5mC at 13)	521 a.u.
GAGGCCATTGCGGTAATGCCTCCTGGCATTACCGCAATGGCCTCACACTC (5mC at 35)	623 a.u.
GAGGCCATTACGGTACTGCCTCCTGGCAGTACCGTAATGGCCTCACACTC (5mC at 16)	632 a.u.
GAGGCCTTTACGGTAATGCCTCCTGGCATTACCGTAAAGGCCTCACACTC	598 a.u.
GAGGCCATCACGGTAATGCCTCCTGGCATTACCGTGATGGCCTCACACTC	641 a.u.
GAGGCCATTACGGTCGTGCCTCCTGGCACGACCGTAATGGCCTCACACTC (5mC at 15 29)	590 a.u.
GAGGCCATTACGGGAATGCCTCCTGGCATTCCCGTAATGGCCTCACACTC	513 a.u.
GAGGCCCGTACGGTAATGCCTCCTGGCATTACCGTACGGGCCTCACACTC (5mC at 7 37)	727 a.u.

Block 4 — technique: RNA Bind-n-Seq; molecule type: RNA; matrix: in vitro; concentration: 365 nM; baseline: no-protein control; direction: higher = stronger binding
Target: RNA binding protein fox-1 homolog 2, RRM domain, GST-SBP tag (RBFOX2, Homo sapiens, UniProt O43251-10, residues 100-194)
Setting: natural RNA segment, single round, ends assumed
Residues (chain): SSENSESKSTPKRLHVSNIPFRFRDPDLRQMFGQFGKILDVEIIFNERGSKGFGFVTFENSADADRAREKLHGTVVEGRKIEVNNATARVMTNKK
Sequence	RBNS enrichment (R)
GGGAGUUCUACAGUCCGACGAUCUGAGUCACAUAAGGAAACCACCUUUGACCUCUCUGACACUUUUGUCUUUAAGCCACGUCUCUGAAAUCUUGUGAGGGGUGAAGAAAGAGGACUGGAGAUGAAUGGACAAUUGGAAUUCUCGGGUGCCAA	0.339
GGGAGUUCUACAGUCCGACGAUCGGACAAGGAAGACAUUAUACUAGUUGAGGCUACAGAAACUCACAUUUUGCUAGAGCUCAAGUAAUAGAAACUUAGUUUCAGAAUCCUGAAUCCAACAUCUAUUUGGAAUGUGGAAUUCUCGGGUGCCAA	0.225
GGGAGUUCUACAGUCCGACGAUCUAAGCCAAAAAUAAAUACGUUAACAGAAAAAUGAUUUAGGAUAUAGCUUGAAUGCUUAAAUAUGUGCACCUUUACAAACCUCUCAGUGUAUUCUUGGAGUUCUUGAAAUGUGGAAUUCUCGGGUGCCAA	1.2
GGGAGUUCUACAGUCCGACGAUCGAGUCUCCUGCCUGCCCACAGAGCAGAGAACCAGUGCACGCUCUUAAGAGAAACUACUUGGCCAAACUGGCCAAGACGCAGCAAGCAGCAGCAGGAACAAAGCAGGCUUAUGGAAUUCUCGGGUGCCAA	0.392
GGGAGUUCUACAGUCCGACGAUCAAAUGUUCGUUUCUUCUGAAGUAAAUAUACAUAUAUAAAUAAAUGUAUAAAUACUGCUUUGUAUCUGAGCUUGCCUCCUUGUCUCUUCUUGGGAUUGGUCUGGUGGGAGAUGGAAUUCUCGGGUGCCAA	0.574
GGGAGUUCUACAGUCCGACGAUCUUAGGGGAAUUAAGGACAGGCCUAGAGUUAAAACACUUGUCUCCUAGUGUCACCUCUGCCAGCAGACUGUUACUUUCCUUCUGAAAAAGCCAAUAGUCUUUUUUUUUUUCUGGAAUUCUCGGGUGCCAA	0.709
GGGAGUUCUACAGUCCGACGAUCCACUCCCCCCUCCAUUCCCACCCCUCAUACCUACACCCAAGGUUGUCAGCUUUGGAUUGCUGGGGCCAGGCCCCAUGGAGGGUAUACUGAGGGGUCUAUAGGUUUGUGAUUGGAAUUCUCGGGUGCCAA	0.283
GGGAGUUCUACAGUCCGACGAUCAUCAUACACUAAAGGAGAAUAUUUGGAGUUAGAUGAGCCUGUCACACAAAGUGAAAGUGGACCCUCCAGAAAUUUUAGGAAUUGCCACAAAGAUUGAUGAUAGAUGAAUAUGGAAUUCUCGGGUGCCAA	0.653
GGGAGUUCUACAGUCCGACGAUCAUUCUACCCUGAACAUACCUCACAGAUCCUCCCUGUCAUGCCACAUUUCACUGAUUGGAAUGUGGAAAUGGAAAAGGAAUUUAGGAUGUGCAUUUUCACCUGAGGUUUCCUGGAAUUCUCGGGUGCCAA	0.259
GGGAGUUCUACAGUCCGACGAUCGGAGGCCUUCCUGAAGAAGCUGAUUGGCUGACAAGCAGGGAUGAGUCCUGGUUCCCUUGCCCGCGUGGGACCCCAAUAGAACUCAGCCCUUCCAUGCCAGCCCUUCCUGCUGGAAUUCUCGGGUGCCAA	1.04
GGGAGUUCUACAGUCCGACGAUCAUUAAUAUUAAUACAGUGAUCUUUUGAAUGUUCCAGGUAUAGGCUUUUUAAAAAGUGUUAAGAGUGUCUGUCUGUCUGUCUGUCUGUCUGUCUGUCUGUACGUUUAAUUGUGGAAUUCUCGGGUGCCAA	2.2
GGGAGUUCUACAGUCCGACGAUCUAUCAGAGGCAAAGGAAGGUCUACAGGCAUCAAUGAGGGCAAAGGAGGGGGUCUCCAGACUCCACUGAAGCAGGAAGUCCACUGUUGUAAACUGAGUUUGCUAAAUUGGGUGGAAUUCUCGGGUGCCAA	0.332

Block 5 — technique: protein-binding microarray; molecule type: double-stranded DNA, one strand shown; matrix: in vitro; concentration: 2540 nM top; setting: 60-bp whole probe; with: salmon DNA 0.4 mg/ml; baseline: random background probes; direction: higher = stronger binding; all sequences stand within: GCCTAGCAC … GTCTTGATTCGCTTGACGCTGCTG
Target: Interferon regulatory factor 3, full length, phosphomimetic (IRF3, Homo sapiens, UniProt Q14653, residues 1-427, S386D/S396D/S398D/S402D/T404D/S405D)
Residues (chain): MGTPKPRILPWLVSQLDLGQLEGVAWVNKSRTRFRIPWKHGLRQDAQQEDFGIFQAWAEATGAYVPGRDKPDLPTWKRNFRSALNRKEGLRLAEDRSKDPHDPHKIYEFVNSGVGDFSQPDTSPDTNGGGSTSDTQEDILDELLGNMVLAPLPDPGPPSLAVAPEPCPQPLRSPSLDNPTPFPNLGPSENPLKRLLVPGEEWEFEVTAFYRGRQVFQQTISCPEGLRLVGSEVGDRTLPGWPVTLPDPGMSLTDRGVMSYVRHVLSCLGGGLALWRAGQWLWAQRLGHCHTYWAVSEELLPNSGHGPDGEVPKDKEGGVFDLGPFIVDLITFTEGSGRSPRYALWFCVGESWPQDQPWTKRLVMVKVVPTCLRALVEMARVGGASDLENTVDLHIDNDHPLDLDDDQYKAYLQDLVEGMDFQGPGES
Sequence	fitted relative affinity [z-score]
GACGGTTTCGGGTTTCGGTACGTGCTA	6.28
TTAGATATCTGGACTGGATTAGTGCTA	-0.312
TGGTGCTTAGTATTTTTTTCCGTGCTA	-0.245
TTAGGTACCGGACTGGGTTAGTGCTAG	1.06
TTAGGACGGGACTATCGGTTAGTGCTA	-0.375
TTAGGTTTCCTTATCCTTTGGTGCTAG	8.13
TCAGGTGTTCTTTTCTGACTGTGCTAG	1.14
CTGTTTTTCCCCTGCACTCAGTGCTAG	1.34
AACGGTTTCGACTATCGGGACGTGCTA	2.79
TTAGAGTTCAGACTGGATTAGTGCTAG	-0.352
TTAGGACTGTTTATCCTTTAGTGCTAG	0.916

A few entries again (block 2):
Substitution	relative binding score
E129I	11.7%
R132S	54.2%
L164P	8%
L169T	-2.4%
V40G	-3.3%
